{"data": "Published values from different studies", "note": "Numbered parts are unrelated; each lists some results of a single study. Changes are numbered by the printed parent chain."}
{"data": "Sample 1", "target": "Sal-like protein 4, full length isoform B (SALL4, Homo sapiens, UniProt Q9UJQ4-2, residues 1-616)", "technique": "universal PBM", "form": "double-stranded DNA, one strand shown", "matrix": "in vitro", "tested at": "not given", "notes": "8-mer, flanks averaged, mean of replicates", "direction": "higher = stronger binding"}
{"Sequence": "TACGTCTA", "E-score": 0.168}
{"Sequence": "CGCGACCG", "E-score": -0.298}
{"Sequence": "ACACCGAA", "E-score": -0.0722}
{"Sequence": "CAACGGGC", "E-score": -0.114}
{"Sequence": "GCGCAGGA", "E-score": -0.205}
{"Sequence": "ACGGGTAA", "E-score": -0.0255}
{"Sequence": "AATAACGC", "E-score": 0.157}
{"Sequence": "ACGCTCCG", "E-score": -0.305}
{"Sequence": "CTCGACAA", "E-score": 0.124}
{"Sequence": "ATAATTAA", "E-score": 0.408}
{"Sequence": "CCATACAC", "E-score": -0.028}
{"Sequence": "ACCCGAAT", "E-score": 0.0139}
{"Sequence": "AAGCCCGG", "E-score": -0.303}
{"Sequence": "AAGTTTGC", "E-score": 0.0563}
{"Sequence": "CAGTTAAC", "E-score": -0.195}
{"Sequence": "GTTAAGCA", "E-score": 0.00882}
{"Sequence": "GAGGAGAC", "E-score": -0.181}
{"Sequence": "ACCGGCAG", "E-score": -0.374}
{"Sequence": "GGGTCAGA", "E-score": -0.222}
{"Sequence": "GTAACTAA", "E-score": 0.0445}
{"Sequence": "ACGTATTG", "E-score": 0.0914}
{"Sequence": "AACAGTAC", "E-score": 0.0957}
{"Sequence": "AGCATATG", "E-score": 0.123}
{"Sequence": "ACGGATTA", "E-score": 0.197}
{"Sequence": "ATCGTGGA", "E-score": 0.0262}
{"data": "Sample 2", "target": "RNA binding protein fox-1 homolog 2, RRM domain, GST-SBP tag (RBFOX2, Homo sapiens, UniProt O43251-10, residues 100-194)", "technique": "RNA Bind-n-Seq", "form": "RNA", "matrix": "in vitro", "tested at": "365 nM", "notes": "natural RNA segment, single round, ends assumed", "reference": "no-protein control", "direction": "higher = stronger binding", "all sequences stand within": "GGGAGUUCUACAGUCCGACGAUC … UGGAAUUCUCGGGUGCCAA", "Target sequence (chain)": "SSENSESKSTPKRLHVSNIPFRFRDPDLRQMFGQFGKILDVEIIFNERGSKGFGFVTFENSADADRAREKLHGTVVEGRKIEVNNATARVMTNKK"}
{"Sequence": "UUCUUUUGUCUUUUAGCUAAAGGAAAAGCAUUGGCGAUUUGUCUGAUUCUGGUUUUGAGUUACUCUUUGUUCAGUAAUGCACUUUAUUUUAUUGUCCAAAGAGAGUCAGA", "RBNS enrichment (R)": 1.03}
{"Sequence": "CCUCAGGAAGCUUGGAACACCUCAGUCACAAGCCUGUCAGUUUCUUCCUCUGGGAUGGGAGUCCCGCAGCAUCGAGACUGGAAACGUACACAUUUCCCCCAGGGACCCUG", "RBNS enrichment (R)": 0.392}
{"Sequence": "CCCAAAGUACGGGUAAUUCAACCUGCACAGUUUUCUUUCACUCAAAGUGUUCAGCACUUGUGAGUGAAAAAUCAUGUAAUUAUCUGUAAAUAUGUAGCUAACAAAUUGAC", "RBNS enrichment (R)": 0.533}
{"Sequence": "CCAGGCAGGGACAGGUUGCCUGUGGCCCCCUCAAUCUGAGGUGCACCCCUUGGGCUAUGGACCCCAUUCCCUUGCCAUCACCCCCGCCAGUGGGUCUGCUUCACUGUGGA", "RBNS enrichment (R)": 0.57}
{"Sequence": "GUCUGAUUUGUCUUUUUAUUUCAUGAUGCAUGUCUUUUUUUUCUUUUGUCAGGAUAACGUCAUAUAGCAUCUUGUUUGUUUUUCCUUAUCUCUAUGUACAUAUCUAUCUA", "RBNS enrichment (R)": 7.05}
{"Sequence": "UACCCGCUGCCCCACAUACCCAGCAUGCCGCUGUGGCCACCAUGUCCUCAAAGCCUUCUGUCUGUAUCAGGAAUGUAGUCUGAGACUGCCAGGAAGCAACAAGGAGAGAG", "RBNS enrichment (R)": 1.7}
{"Sequence": "GAGGUGCUUCAACCCCACCUACUCUGCCUUCCACCUCUCCCCAACCAUCACUGUAAUUUAUGGCCCCCGCCGUGGGGCAGCCUAGCCCUUGUGUCUGUGUAUAUACUGUG", "RBNS enrichment (R)": 0.64}
{"Sequence": "AGUUUGUUUGUAUAACUGCUUCCAACCCACUGCUUCUUAUGUUGCUGGGGCUCCUUCCACGGACCCCAGCUGUGCCCUCAAGUUGGUGAUUCUAGUUUGGGCUCAAUGAA", "RBNS enrichment (R)": 0.301}
{"data": "Sample 3", "target": "CCNE1, cyclin fold, Cln2 fusion (human)", "technique": "yeast growth competition, sequencing", "matrix": "yeast", "notes": "weak parent motif", "reference": "not given", "direction": "higher = stronger binding", "parent": "WEE1 docking peptide (human); CTLRQKLIFSPCS"}
{"Variant": "CTLRQKLIFAPCS [S10A]", "normalised enrichment score": 0.567}
{"Variant": "CTLRQKLIFSPAS [C12A]", "normalised enrichment score": 0.298}
{"Variant": "CTLRQKLIFSACS [P11A]", "normalised enrichment score": 0.522}
{"Variant": "CTLRQKAIFSPCS [L7A]", "normalised enrichment score": 0.223}
{"Variant": "CTLAQKLIFSPCS [R4A]", "normalised enrichment score": 0.326}
{"Variant": "CTLRQKLIASPCS [F9A]", "normalised enrichment score": -0.0588}
{"data": "Sample 4", "target": "CREBZF, bZIP domain (human)", "technique": "DHFR protein complementation", "matrix": "yeast", "notes": "single substitutions, most at no-binding floor", "reference": "wild-type JUN-FOS pair", "direction": "higher = stronger binding", "parent": "JUN, bZIP domain (human); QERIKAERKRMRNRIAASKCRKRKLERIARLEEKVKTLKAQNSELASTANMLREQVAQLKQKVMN; partner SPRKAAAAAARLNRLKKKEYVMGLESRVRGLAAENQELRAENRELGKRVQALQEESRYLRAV"}
{"Variant": "N42R", "binding fitness [natural log]": -1.47}
{"Variant": "K39N", "binding fitness [natural log]": -1.58}
{"Variant": "A49M", "binding fitness [natural log]": -1.53}
{"Variant": "E32N", "binding fitness [natural log]": -1.47}
{"Variant": "V35E", "binding fitness [natural log]": -1.47}
{"Variant": "S43I", "binding fitness [natural log]": -1.45}
{"Variant": "E33L", "binding fitness [natural log]": -1.51}
{"Variant": "E44L", "binding fitness [natural log]": -1.46}
{"Variant": "Q41H", "binding fitness [natural log]": -1.42}
{"Variant": "R30Y", "binding fitness [natural log]": -1.4}
{"Variant": "K36V", "binding fitness [natural log]": -1.57}
{"Variant": "A29D", "binding fitness [natural log]": -1.52}
{"data": "Sample 5", "target": "Interferon regulatory factor 5, full length, phosphomimetic (IRF5, Homo sapiens, UniProt Q13568-2, residues 1-514, K96S/S451D/S453D/S456D/S462D)", "technique": "protein-binding microarray", "form": "double-stranded DNA, one strand shown", "matrix": "in vitro", "tested at": "250 nM", "notes": "60-bp whole probe", "added": "salmon DNA 0.4 mg/ml", "reference": "random background probes", "direction": "higher = stronger binding", "all sequences stand within": "GCCTAGCAC … GTCTTGATTCGCTTGACGCTGCTG"}
{"Sequence": "TAAATTTTGATGGAGAGTGCGTGCTAG", "log fluorescence": "0.249 z-score"}
{"Sequence": "GACGGTATCGGGAATCGGGACGTGCTA", "log fluorescence": "1.44 z-score"}
{"Sequence": "GACGATCTCAGTCTAGAGACGTGCTAG", "log fluorescence": "-0.306 z-score"}
{"Sequence": "GACGATTTCAATATCGAGACGTGCTAG", "log fluorescence": "2.12 z-score"}
{"Sequence": "TTAGGTTTTGGGTTTCGGTTAGTGCTA", "log fluorescence": "7.77 z-score"}
{"Sequence": "GACGGTATCCTTTTCCGGACGTGCTAG", "log fluorescence": "0.319 z-score"}
{"Sequence": "TTTTATATCTTATCCTATCAGTGCTAG", "log fluorescence": "1.61 z-score"}
{"Sequence": "TTAGGTCTCGTTATCGGTTAGTGCTAG", "log fluorescence": "5.09 z-score"}
{"Sequence": "TTAGGACTGCTTATCCTTTAGTGCTAG", "log fluorescence": "-0.225 z-score"}
{"Sequence": "TTAGGTATCAGGTATCGGTTAGTGCTA", "log fluorescence": "5 z-score"}
{"Sequence": "TTAGGTTTCGGGTATCGGTTAGTGCTA", "log fluorescence": "9.18 z-score"}
{"Sequence": "CAGAAGTTCATGTTCAACCAGTGCTAG", "log fluorescence": "-0.0659 z-score"}
{"Sequence": "GACAATATCGGGACTGGAGACGTGCTA", "log fluorescence": "1.32 z-score"}
{"Sequence": "GATGATTTCAGTCTCGAGACGTGCTAG", "log fluorescence": "1.86 z-score"}
{"Sequence": "TCAAGAATCACAACTAGGACTGTGCTA", "log fluorescence": "0.0344 z-score"}
{"Sequence": "GACGGTTTCCTCCTCCTGACGTGCTAG", "log fluorescence": "0.427 z-score"}
{"Sequence": "TCATATATCATTTAATTACTGTGCTAG", "log fluorescence": "1.58 z-score"}
{"Sequence": "GACGATATCGGGTTTCCAGACGTGCTA", "log fluorescence": "1.76 z-score"}
{"Sequence": "TCATATATTTTAATCACACTGTGCTAG", "log fluorescence": "0.775 z-score"}
{"data": "Sample 6", "target": "ABI1, truncated, D143A, DHFR fusion (Arabidopsis thaliana, UniProt P49597)", "technique": "DHFR PCA, dose-response", "matrix": "yeast", "notes": "Hill fit, mean, not affinity", "added": "(+)-ABA, dose series", "direction": "lower = more sensitive", "parent": "PYL1, truncated, DHFR fusion (Arabidopsis thaliana, UniProt Q8VZS8); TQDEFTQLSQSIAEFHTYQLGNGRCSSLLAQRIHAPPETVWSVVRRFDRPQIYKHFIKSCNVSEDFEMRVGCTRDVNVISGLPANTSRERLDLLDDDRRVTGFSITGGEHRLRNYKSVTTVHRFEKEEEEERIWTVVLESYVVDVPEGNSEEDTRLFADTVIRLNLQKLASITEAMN"}
{"Variant": "E64V", "ABA EC50 [µM]": 3.96}
{"Variant": "R24H", "ABA EC50 [µM]": 10.8}
{"Variant": "S150F", "ABA EC50 [µM]": 66.1}
{"Variant": "R32Y", "ABA EC50 [µM]": 3.53}
{"Variant": "I105V", "ABA EC50 [µM]": 3.28}
{"Variant": "S171M", "ABA EC50 [µM]": 2.67}
{"Variant": "N22H", "ABA EC50 [µM]": 1.84}
{"Variant": "E125W", "ABA EC50 [µM]": 3.12}
{"Variant": "K168H", "ABA EC50 [µM]": 1.58}
{"Variant": "L91C", "ABA EC50 [µM]": 19.7}
{"Variant": "E151S", "ABA EC50 [µM]": 3.16}
{"Variant": "Y18F", "ABA EC50 [µM]": 13.5}
{"Variant": "K116G", "ABA EC50 [µM]": 168}
{"Variant": "M68K", "ABA EC50 [µM]": 33.5}
{"Variant": "N61Y", "ABA EC50 [µM]": 2.57}
{"Variant": "D96G", "ABA EC50 [µM]": 181}
{"data": "Sample 7", "target": "Eukaryotic initiation factor 4A-I (EIF4A1, Homo sapiens, UniProt P60842, residues 1-406, full length assumed)", "technique": "RNA Bind-n-Seq", "form": "RNA", "matrix": "in vitro", "tested at": "not given", "notes": "4-mer, random 30-nt RNA, single round", "added": "RocA, ADP, phosphate", "reference": "input library", "direction": "higher = stronger binding", "sequence of UniProt P60842 (whole entry, looked up)": "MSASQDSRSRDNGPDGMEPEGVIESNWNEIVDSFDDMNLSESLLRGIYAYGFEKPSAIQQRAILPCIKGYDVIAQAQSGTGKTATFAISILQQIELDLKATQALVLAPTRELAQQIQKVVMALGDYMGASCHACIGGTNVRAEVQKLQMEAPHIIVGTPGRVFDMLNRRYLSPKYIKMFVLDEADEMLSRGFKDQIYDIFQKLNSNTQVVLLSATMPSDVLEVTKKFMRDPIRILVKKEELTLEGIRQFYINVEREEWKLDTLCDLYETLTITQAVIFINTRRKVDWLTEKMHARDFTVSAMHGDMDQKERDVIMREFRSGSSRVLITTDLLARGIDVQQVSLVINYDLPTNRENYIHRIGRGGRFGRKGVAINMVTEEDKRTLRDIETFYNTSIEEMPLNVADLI"}
{"Sequence": "CUGC", "4-mer enrichment": "0.587 fold"}
{"Sequence": "GGAC", "4-mer enrichment": "0.753 fold"}
{"Sequence": "GCUA", "4-mer enrichment": "0.758 fold"}
{"Sequence": "UUCG", "4-mer enrichment": "0.728 fold"}
{"Sequence": "GCCA", "4-mer enrichment": "0.691 fold"}
{"Sequence": "GUAG", "4-mer enrichment": "1.19 fold"}
{"Sequence": "UGCG", "4-mer enrichment": "0.847 fold"}
{"Sequence": "UCAC", "4-mer enrichment": "0.566 fold"}
{"Sequence": "ACAA", "4-mer enrichment": "0.822 fold"}
{"Sequence": "AAUC", "4-mer enrichment": "0.726 fold"}
{"Sequence": "CGAU", "4-mer enrichment": "0.737 fold"}
{"Sequence": "GGCG", "4-mer enrichment": "0.91 fold"}
{"Sequence": "AGGA", "4-mer enrichment": "2.02 fold"}
{"Sequence": "UGAA", "4-mer enrichment": "1.32 fold"}
{"Sequence": "CUUG", "4-mer enrichment": "0.722 fold"}
{"Sequence": "GUAC", "4-mer enrichment": "0.769 fold"}
{"note": "Excerpt of the above (sample 1):"}
{"Sequence": "CTCGACAA", "E-score": 0.124}
{"Sequence": "CAGTTAAC", "E-score": -0.195}
{"Sequence": "GGGTCAGA", "E-score": -0.222}
{"Sequence": "ACGGATTA", "E-score": 0.197}
{"Sequence": "AATAACGC", "E-score": 0.157}
{"Sequence": "GCGCAGGA", "E-score": -0.205}
{"Sequence": "CAACGGGC", "E-score": -0.114}
{"Sequence": "GAGGAGAC", "E-score": -0.181}
{"Sequence": "ACGCTCCG", "E-score": -0.305}
